Measurements pooled from the literature.
A part holds a random share of what one study measured. Changes are numbered by the printed parent chain.

Sample 1
Target: Centromere-binding protein 1, full length, N-terminal tag (CBF1, Saccharomyces cerevisiae, UniProt P17106, residues 1-351)
Sequence of UniProt P17106 (whole entry, looked up): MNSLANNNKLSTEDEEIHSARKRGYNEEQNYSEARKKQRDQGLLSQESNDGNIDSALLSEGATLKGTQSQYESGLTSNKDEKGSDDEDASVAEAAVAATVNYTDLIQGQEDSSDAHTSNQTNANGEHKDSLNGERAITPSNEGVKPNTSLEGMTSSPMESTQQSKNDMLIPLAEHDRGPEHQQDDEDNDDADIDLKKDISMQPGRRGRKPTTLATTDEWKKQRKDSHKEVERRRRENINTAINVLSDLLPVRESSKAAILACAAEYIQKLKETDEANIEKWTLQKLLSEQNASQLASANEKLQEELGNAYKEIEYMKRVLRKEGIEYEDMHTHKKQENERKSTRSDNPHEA
Method: protein-binding microarray
Form: double-stranded DNA, one strand shown
Matrix: in vitro
Concentration: 0.8 µM
Setting: whole 60-bp probe, no competitor
Reading: higher = stronger binding
Quantity: fluorescence intensity
All sequences stand within: … GTCTTGATTCGCTTGACGCTGCTG
CTACAGGACAGTTTGCACGTTATCAGATAAACTTTC: 1040 a.u.
GAACTTTAAGTCCATCACATGGTGTTTTATGGGTAG: 1930 a.u.
TGTACGAAGCTATCAAATATATCTATAGTAGTTAGG: 525 a.u.
CCTAACTACTATAGCTGTGTGACATAGCTTCGTACA: 534 a.u.
CTAATGGTTCTAGTTAGTCACGTGCAGCTTTTTTTC: 21300 a.u.
GAAGTAATCTATCGTGGTCATTTCTTGTTCTCATAG: 517 a.u.
GAAGAAATGAAAAATTACATCAGCGAACTAATGTAG: 489 a.u.
GAAAAAAAAACCCATCATGATATTCTACGCTTTTAG: 534 a.u.
CTACGCCGCTATTACTACGTGCTGCTTCTTTTGTTC: 509 a.u.
CTAGATCATCATTATTATCACCTGTTTTCGCTTTTC: 914 a.u.
CTATTGGTAAGTGATCACGTGGTCAGACAGTTTTTC: 28700 a.u.
TGTACGAAGCTATTGTATGTGCGTATAGTAGTTAGG: 516 a.u.
GAATTTTTTGTGTGGCATGTGCAGCGAGCGATGTAG: 839 a.u.
GAAAAAGAAAAAAATTACGTGACGCGACGCGTTTAG: 577 a.u.
CTAAATTTCGCTAAACACGGGGTTTAAGTTTAATTC: 768 a.u.
GAAAAGAAATAGAGATCGGTGACGTTTGACGCTTAG: 512 a.u.
CTAGGGAGGCAACGTGATGTGGTTCATAGCACTTTC: 1560 a.u.
CCTAACTACTATATATGCGTGCAATAGCTTCGTACA: 539 a.u.
GAATGAAACGTTAATTGCGTGTTTCAGTATTATTAG: 508 a.u.
GAAGCAAATTGCATCAACATGATGCAAAAAGTCTAG: 507 a.u.
GAAAAAGGCGGGGCAAACGTGATGGCGCTTGCTTAG: 611 a.u.
CTACCTTTTCAAGATCATCACCGTCGTCATCACTTC: 548 a.u.

Sample 2
Target: Interferon regulatory factor 7, full length, phosphomimetic (IRF7, Homo sapiens, UniProt Q92985, residues 1-503, S471D/S472D/S475D/S476D/S477D/S483D/S484D/S487D)
Method: protein-binding microarray
Form: double-stranded DNA, one strand shown
Matrix: in vitro
Concentration: 2200 nM top
Setting: 60-bp whole probe
Together with: salmon DNA 0.4 mg/ml
Baseline: random background probes
Reading: higher = stronger binding
Quantity: fitted relative affinity
All sequences stand within: GCCTAGCAC … GTCTTGATTCGCTTGACGCTGCTG
Residues (chain): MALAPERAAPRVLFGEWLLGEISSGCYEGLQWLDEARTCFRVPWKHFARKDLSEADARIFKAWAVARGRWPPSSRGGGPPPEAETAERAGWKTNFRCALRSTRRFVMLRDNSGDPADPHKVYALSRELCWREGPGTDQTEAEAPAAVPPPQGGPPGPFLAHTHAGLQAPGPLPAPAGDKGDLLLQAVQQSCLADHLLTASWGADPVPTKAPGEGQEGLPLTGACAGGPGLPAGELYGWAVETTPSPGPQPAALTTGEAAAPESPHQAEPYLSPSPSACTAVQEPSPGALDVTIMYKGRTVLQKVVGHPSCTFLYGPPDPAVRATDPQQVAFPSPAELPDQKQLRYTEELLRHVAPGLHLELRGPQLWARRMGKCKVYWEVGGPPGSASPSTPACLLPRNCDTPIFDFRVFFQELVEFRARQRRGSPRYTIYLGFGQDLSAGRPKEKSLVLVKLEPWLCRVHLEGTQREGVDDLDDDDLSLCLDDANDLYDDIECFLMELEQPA
TCAGGTATCGGACTGGGTTAGTGCTAG: 0.483 z-score
GACGATCTCAGGCTCGAGACGTGCTAG: 0.0774 z-score
GACGGACTGCTGCTCCTGACGTGCTAG: 0.285 z-score
CATCATTTTTCCCTCTGGAAGTGCTAG: 2.27 z-score
TGTCTTCCCCTCTCTTTCCAAGTGCTA: 2.41 z-score
GTAGGTATCGGTATCGGTTAGTGCTAG: 0.895 z-score
TTAGGTATCCTTATCCTTTAGTGCTAG: 0.873 z-score
TTGATAATTTTTTTCTAAGTGTGCTAG: 0.00904 z-score
CCTTTTTTTTTTTTTCTGATGTGCTAG: 2.07 z-score
TCAGCTCTGCAGCTCAGACTGTGCTAG: 0.072 z-score
GACGGTTTCGACAATCGGGACGTGCTA: 2.01 z-score
GTAGAACTGGGGTATCGATTAGTGCTA: 0.155 z-score
TTAGGTAACGACTATCGGTTAGTGCTA: -0.0578 z-score
GACGAACTGGGGTATCGAGCCGTGCTA: -0.138 z-score
CATTTTAGTAGTTTCTAAAAGTGCTAG: 1.32 z-score
TTAGGACTGGACTATCGGTGAGTGCTA: -0.549 z-score
TTTACTAGGAGTTTTCAGTCCGTGCTA: 1.06 z-score
TTAGGTCTCGGTATCGGGTAGTGCTAG: 0.386 z-score
GACGGACTGCTACTGATGACGTGCTAG: -0.0987 z-score
GACGGTCTCGGGTTTCGGGACGTGCTA: 1.43 z-score

Sample 3
Target: Prothrombin, mature alpha-thrombin (F2, Homo sapiens, UniProt P00734)
Method: aptamer microarray, sandwich
Form: DNA with 2'F-ANA
Matrix: in vitro
Concentration: 200 nM
Setting: whole 15-mer aptamer, many near background
Together with: Cy3 exosite-II aptamer, 400 nM
Reading: higher = stronger binding
Quantity: mean fluorescence intensity
Oligonucleotide: GGTTGGTGTGGTTGG
2'F-ANA at 3 10 13 15: 608 a.u.
2'F-ANA at 2 4 6 9 10 12: 120 a.u.
2'F-ANA at 1 4 6 7 10 13 15: 64.1 a.u.
2'F-ANA at 2 3 8 9 11 12 13 14: 408 a.u.
2'F-ANA at 1 2 3 4 6 9 10 11 14: 54.3 a.u.
2'F-ANA at 3 5 6 7 11 13 14: 52 a.u.
2'F-ANA at 1 3 5 6 9: 87.5 a.u.
2'F-ANA at 2 3 5 6 8 9 10 12 15: 54.5 a.u.
2'F-ANA at 1 3 4 6 7 10 12 13: 65.9 a.u.
2'F-ANA at 3 4 5 7 8 9 10 11 13 15: 52.5 a.u.
2'F-ANA at 4 6 8 9 10 13 14: 68.3 a.u.
2'F-ANA at 1 2 3 4 7 9 11 14: 71.5 a.u.
2'F-ANA at 2 3 6 8 9 12 13: 728 a.u.
2'F-ANA at 4 6 7 10 12 13 14: 73.8 a.u.
2'F-ANA at 1 2 5 6 8 10 12 14: 47.8 a.u.
2'F-ANA at 1 3 5 12 13: 96.2 a.u.
2'F-ANA at 2 3 5 11: 86 a.u.
2'F-ANA at 1 3 7 10 11 12 13 14 15: 64.6 a.u.
2'F-ANA at 2 3 7 8 9 12 15: 1150 a.u.
2'F-ANA at 1 3 5 6 8 15: 66.7 a.u.
2'F-ANA at 6 8 13 15: 401 a.u.
2'F-ANA at 1 2 3 4 5 6 8 9 11 12 13: 70.5 a.u.
2'F-ANA at 3 5 6 10 13: 55.6 a.u.
2'F-ANA at 2 4 5 7 8 10 12 14 15: 48.6 a.u.
2'F-ANA at 4 5 7 9 10 14 15: 73.9 a.u.

Sample 4
Target: Sal-like protein 4, full length isoform B (SALL4, Homo sapiens, UniProt Q9UJQ4-2, residues 1-616)
Method: universal PBM
Form: double-stranded DNA, one strand shown
Matrix: in vitro
Concentration: not given
Setting: 8-mer, flanks averaged, mean of replicates
Reading: higher = stronger binding
Quantity: E-score
Target sequence (chain): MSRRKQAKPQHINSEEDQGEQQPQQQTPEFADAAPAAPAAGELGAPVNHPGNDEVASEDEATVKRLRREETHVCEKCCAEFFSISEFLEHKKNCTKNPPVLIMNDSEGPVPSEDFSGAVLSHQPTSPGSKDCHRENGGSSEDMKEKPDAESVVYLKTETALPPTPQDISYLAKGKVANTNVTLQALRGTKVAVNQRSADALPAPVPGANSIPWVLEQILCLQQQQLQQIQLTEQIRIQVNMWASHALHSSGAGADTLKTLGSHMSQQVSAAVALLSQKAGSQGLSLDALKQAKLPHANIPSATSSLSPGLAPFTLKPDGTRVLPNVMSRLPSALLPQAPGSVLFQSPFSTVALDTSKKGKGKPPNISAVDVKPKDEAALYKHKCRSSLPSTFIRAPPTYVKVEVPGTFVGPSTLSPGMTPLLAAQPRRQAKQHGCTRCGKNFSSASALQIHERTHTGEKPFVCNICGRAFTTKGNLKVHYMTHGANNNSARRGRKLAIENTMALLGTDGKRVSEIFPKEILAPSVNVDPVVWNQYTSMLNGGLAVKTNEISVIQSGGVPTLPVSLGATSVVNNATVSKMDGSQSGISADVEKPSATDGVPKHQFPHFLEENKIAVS
TATCGTGA: 0.0258
ACTTCTAG: -0.0716
GCTCTTTA: -0.138
GACCGCTA: -0.172
GACAGCGC: -0.193
AGCGATGA: -0.0884
AGATAAAT: 0.23
GTGTTGTA: 0.127
AGGCGGTC: -0.211
CACGAGGA: -0.152
AGTTCCCA: -0.0761
CTGCAAAC: 0.0345
TAAAGCCA: 0.115
CATCTCTC: -0.0984
AAGAGTTG: 0.0943
CCCCTCAG: -0.376
CGTGCCAG: -0.225

Sample 5
Target: Histone acetyltransferase KAT6A, winged helix 1, GST fusion (KAT6A, Homo sapiens, UniProt Q92794, residues 1-85)
Method: protein binding microarray
Form: double-stranded DNA, one strand shown
Matrix: in vitro
Concentration: not given
Setting: 8-mer, flanks averaged, mean of 2 arrays, mostly near background
Baseline: not given
Reading: higher = stronger binding
Quantity: E-score
Target sequence (chain): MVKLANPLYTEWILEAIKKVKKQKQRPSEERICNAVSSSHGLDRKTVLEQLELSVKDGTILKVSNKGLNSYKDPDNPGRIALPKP
CAAGTCGA: -0.216
CAGCTCCC: -0.18
TAGCTTGA: -0.193
TAATTAAA: -0.135
ATTTGCAA: -0.191
CGTGTGAG: 0.00521
CCTGCATA: -0.0465
CGGGAAAC: 0.204
CATCCAAA: -0.148
ACAGAAAC: -0.2
CCTATGAC: -0.044
CAGCTTCG: -0.113
ACAGGTAC: -0.161
GAAATATA: 0.0181
GTCAACGA: -0.166
CAAGGAGA: -0.234
CGACAGCC: 0.109
AGGCCCAC: -0.133
GAGAGCCA: -0.126
GGTGACCA: -0.143
CGGGACTA: 0.205

Sample 6
Target: CCND3, cyclin fold, Cln2 fusion (human)
Method: yeast growth competition, sequencing
Matrix: yeast
Setting: weak parent motif
Baseline: not given
Reading: higher = stronger binding
Quantity: normalised enrichment score
Starting sequence: RBL1 docking peptide (human); GSAKRRLFGEDPP
P12W: 0.119
G9P: 0.166
P12S: 0.2
D11G: 0.146
S2L: 0.159
L7I: 0.218
G9R: 0.124
E10S: 0.142
F8K: 0.221
F8T: 0.143
P12F: 0.115
A3R: 0.108
G9T: 0.101
K4Y: 0.121
P12C: 0.0788
R5K F8L: 0.00796
S2A: 0.184
D11L: 0.19

For quick reference, copied from above (sample 3):
2'F-ANA at 3 5 6 7 11 13 14: 52 a.u.
2'F-ANA at 1 3 5 6 9: 87.5 a.u.
2'F-ANA at 2 3 5 6 8 9 10 12 15: 54.5 a.u.
2'F-ANA at 1 3 4 6 7 10 12 13: 65.9 a.u.
2'F-ANA at 3 4 5 7 8 9 10 11 13 15: 52.5 a.u.
2'F-ANA at 4 6 8 9 10 13 14: 68.3 a.u.
2'F-ANA at 1 2 3 4 7 9 11 14: 71.5 a.u.
2'F-ANA at 2 3 6 8 9 12 13: 728 a.u.
2'F-ANA at 4 6 7 10 12 13 14: 73.8 a.u.
2'F-ANA at 1 2 5 6 8 10 12 14: 47.8 a.u.
